# Measured values collected from several papers.
# A part holds a random share of what one study measured. Several values in a cell are separate wells, animals, samples, runs or records.
# UniProt Q59H18, sequence (whole entry, looked up): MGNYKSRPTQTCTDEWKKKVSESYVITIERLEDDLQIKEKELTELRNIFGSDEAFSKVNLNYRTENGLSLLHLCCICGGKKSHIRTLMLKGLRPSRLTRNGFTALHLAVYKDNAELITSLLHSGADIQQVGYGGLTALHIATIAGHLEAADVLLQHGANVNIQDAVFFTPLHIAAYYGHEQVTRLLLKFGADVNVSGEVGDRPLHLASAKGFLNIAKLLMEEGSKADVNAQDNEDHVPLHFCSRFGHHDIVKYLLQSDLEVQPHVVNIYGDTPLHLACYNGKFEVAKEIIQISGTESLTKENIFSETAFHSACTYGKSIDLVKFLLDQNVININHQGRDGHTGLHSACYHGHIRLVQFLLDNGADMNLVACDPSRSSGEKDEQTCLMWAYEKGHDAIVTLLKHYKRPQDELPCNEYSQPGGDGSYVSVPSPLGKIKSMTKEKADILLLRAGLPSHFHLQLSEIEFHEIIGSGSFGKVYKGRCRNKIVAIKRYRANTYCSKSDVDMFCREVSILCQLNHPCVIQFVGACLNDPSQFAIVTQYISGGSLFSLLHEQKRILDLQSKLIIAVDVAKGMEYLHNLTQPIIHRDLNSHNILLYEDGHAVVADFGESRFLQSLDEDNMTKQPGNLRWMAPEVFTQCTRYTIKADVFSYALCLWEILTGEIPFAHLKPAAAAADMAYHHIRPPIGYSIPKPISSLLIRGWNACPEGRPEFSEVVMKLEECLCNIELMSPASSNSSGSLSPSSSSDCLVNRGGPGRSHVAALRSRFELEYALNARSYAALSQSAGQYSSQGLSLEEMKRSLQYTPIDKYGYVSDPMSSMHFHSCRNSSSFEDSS
# UniProt O75116, sequence (whole entry, looked up): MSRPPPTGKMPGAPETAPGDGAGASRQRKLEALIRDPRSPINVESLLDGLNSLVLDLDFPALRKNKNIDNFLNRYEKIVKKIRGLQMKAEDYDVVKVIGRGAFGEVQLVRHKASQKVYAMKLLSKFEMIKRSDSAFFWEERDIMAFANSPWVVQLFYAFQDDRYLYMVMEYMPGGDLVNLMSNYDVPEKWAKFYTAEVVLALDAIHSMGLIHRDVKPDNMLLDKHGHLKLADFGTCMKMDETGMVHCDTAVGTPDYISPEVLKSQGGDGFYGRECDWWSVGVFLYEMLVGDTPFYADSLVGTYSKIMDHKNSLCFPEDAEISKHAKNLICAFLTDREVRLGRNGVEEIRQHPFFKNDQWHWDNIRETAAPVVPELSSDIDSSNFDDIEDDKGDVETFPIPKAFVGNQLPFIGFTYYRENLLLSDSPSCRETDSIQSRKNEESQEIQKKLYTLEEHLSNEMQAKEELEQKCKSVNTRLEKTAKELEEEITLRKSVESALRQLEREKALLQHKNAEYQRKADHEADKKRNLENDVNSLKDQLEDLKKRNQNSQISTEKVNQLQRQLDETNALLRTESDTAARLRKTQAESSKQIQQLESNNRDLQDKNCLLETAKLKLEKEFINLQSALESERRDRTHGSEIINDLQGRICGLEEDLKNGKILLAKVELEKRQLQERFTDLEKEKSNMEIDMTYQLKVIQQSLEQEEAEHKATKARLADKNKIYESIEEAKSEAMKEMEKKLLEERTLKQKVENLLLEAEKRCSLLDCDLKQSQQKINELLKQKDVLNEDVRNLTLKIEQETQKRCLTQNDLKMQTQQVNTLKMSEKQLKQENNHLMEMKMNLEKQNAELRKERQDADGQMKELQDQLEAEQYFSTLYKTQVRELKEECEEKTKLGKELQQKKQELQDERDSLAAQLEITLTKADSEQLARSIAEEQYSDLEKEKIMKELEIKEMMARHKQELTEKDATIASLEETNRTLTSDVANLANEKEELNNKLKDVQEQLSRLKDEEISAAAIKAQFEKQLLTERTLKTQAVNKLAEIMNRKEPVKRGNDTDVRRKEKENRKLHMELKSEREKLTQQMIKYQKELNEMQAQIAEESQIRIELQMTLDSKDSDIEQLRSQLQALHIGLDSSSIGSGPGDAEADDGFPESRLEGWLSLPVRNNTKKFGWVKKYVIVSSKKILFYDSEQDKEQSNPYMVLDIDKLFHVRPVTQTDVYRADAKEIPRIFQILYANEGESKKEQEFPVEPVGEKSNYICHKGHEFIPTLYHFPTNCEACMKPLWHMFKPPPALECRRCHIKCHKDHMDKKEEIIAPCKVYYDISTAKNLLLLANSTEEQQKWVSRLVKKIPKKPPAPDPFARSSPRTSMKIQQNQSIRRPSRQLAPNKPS
# UniProt P22607, sequence (whole entry, looked up): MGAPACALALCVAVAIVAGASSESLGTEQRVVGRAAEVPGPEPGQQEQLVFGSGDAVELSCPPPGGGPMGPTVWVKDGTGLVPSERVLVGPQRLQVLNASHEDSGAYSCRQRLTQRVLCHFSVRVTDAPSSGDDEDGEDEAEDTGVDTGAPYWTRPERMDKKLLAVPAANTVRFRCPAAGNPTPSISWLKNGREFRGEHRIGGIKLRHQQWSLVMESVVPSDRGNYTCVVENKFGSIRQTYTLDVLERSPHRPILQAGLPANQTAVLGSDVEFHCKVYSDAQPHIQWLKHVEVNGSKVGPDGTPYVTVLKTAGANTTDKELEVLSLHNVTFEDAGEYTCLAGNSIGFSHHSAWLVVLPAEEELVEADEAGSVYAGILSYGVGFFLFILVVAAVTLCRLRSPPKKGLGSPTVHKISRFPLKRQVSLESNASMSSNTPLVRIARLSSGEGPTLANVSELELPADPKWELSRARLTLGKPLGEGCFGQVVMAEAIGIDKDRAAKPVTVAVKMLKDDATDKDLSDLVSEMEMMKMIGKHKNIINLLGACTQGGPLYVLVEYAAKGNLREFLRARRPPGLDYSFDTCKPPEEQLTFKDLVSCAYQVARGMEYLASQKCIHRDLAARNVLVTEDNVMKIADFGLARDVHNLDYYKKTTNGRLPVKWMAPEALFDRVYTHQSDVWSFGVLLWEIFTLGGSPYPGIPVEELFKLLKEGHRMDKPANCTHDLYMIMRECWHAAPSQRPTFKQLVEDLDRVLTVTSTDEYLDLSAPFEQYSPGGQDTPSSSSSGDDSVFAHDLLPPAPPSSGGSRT
# UniProt P10398, sequence (whole entry, looked up): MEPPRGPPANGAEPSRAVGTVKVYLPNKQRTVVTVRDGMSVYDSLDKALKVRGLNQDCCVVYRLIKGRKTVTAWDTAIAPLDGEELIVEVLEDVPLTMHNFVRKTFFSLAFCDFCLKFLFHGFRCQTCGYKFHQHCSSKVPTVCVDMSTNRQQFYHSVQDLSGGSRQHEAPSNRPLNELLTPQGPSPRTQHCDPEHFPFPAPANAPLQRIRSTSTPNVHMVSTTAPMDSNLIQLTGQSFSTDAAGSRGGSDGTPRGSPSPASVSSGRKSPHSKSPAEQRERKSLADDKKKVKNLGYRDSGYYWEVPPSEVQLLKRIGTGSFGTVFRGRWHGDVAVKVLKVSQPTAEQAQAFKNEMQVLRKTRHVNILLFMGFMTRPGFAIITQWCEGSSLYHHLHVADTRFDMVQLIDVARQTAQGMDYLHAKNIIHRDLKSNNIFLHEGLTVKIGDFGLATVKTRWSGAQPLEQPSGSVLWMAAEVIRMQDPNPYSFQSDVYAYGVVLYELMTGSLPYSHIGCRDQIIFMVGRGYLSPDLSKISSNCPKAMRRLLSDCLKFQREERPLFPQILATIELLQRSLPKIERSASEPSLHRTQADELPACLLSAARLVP
# UniProt Q99558, sequence (whole entry, looked up): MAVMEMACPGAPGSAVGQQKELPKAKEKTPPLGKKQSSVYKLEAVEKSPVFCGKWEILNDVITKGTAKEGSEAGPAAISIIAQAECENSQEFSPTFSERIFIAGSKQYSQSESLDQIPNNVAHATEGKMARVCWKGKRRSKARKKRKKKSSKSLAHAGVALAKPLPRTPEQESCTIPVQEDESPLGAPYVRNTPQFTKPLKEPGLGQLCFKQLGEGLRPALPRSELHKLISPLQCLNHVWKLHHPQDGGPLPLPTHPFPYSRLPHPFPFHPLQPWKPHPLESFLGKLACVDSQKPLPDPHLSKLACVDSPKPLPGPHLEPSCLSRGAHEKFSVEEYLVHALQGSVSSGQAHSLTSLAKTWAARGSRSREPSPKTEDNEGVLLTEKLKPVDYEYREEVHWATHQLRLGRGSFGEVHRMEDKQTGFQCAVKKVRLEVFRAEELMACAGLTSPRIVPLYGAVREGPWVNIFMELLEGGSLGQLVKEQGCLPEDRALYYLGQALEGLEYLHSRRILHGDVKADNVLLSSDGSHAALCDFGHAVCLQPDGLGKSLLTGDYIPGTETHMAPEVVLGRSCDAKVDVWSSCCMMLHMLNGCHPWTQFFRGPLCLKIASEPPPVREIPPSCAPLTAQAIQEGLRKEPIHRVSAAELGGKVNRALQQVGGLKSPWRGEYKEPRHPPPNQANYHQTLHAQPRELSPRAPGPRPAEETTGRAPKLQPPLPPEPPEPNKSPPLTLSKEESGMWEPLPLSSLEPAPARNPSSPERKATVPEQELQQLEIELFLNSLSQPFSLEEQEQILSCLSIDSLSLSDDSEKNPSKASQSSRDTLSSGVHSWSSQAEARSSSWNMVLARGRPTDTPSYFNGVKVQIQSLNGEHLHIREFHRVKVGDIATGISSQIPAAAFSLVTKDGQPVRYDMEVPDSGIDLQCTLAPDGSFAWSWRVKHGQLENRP
# UniProt Q9HBY8, sequence (whole entry, looked up): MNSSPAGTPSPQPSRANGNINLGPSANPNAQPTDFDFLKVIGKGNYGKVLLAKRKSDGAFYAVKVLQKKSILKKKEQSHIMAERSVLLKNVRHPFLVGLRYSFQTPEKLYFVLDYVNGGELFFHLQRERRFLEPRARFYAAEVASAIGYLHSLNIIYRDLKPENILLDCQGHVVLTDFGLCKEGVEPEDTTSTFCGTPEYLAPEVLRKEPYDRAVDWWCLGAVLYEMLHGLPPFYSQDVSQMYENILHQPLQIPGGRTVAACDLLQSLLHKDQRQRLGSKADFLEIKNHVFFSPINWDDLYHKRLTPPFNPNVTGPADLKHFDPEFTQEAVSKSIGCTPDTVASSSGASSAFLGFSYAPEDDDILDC

# Sample 1
# SMILES: CCN(CC)CCNC(=O)c1c(C)[nH]c(/C=C2\C(=O)Nc3ccc(F)cc32)c1C
# Read-out: enzyme activity
# Mode: inhibitor
# Concentration: 0.5 µM
# Reference: control
target,remaining activity
"TAOK2 (Homo sapiens, UniProt Q9UL54)",90.3%
"TEK (Homo sapiens, UniProt Q02763)",88.6%
"GRK7 (Homo sapiens, UniProt Q8WTQ7)",71.3%
"MAPKAPK2 (Homo sapiens, UniProt P49137)",93.2%
"GSK3B (Homo sapiens, UniProt P49841)",95.8%
"MERTK (Homo sapiens, UniProt Q12866)",39.8%
"NEK1 (Homo sapiens, UniProt Q96PY6)",72.6%
"FRK (Homo sapiens, UniProt P42685)",84.4%
"NEK6 (Homo sapiens, UniProt Q9HC98)",89%
"MAP3K5 (Homo sapiens, UniProt Q99683)",100%
"FGFR3 (Homo sapiens, UniProt P22607)",39.7%
"ARAF (Homo sapiens, UniProt P10398)",124%
"JAK3 (Homo sapiens, UniProt P52333)",80.7%
"MST1R (Homo sapiens, UniProt Q04912)",92%
"ABL2 (Homo sapiens, UniProt P42684)",61.8%
"MAP3K14 (Homo sapiens, UniProt Q99558)",127%
"ULK2 (Homo sapiens, UniProt Q8IYT8)",40.3%

# Sample 2
# Host: human
# Sample: microsomes or S9
# Concentration: 2 µM
# Time: 0.5 h
SMILES,remaining compound [%]
OC1=C2C(=Nc3ncnn3C2c2cn(-c3ccccc3)nc2-c2cccnc2)CCC1 (stereo not shown),70.6
COC(=O)c1ccc2c(c1)OC(CC(=O)Nc1ccc(N)cc1)C(=O)N2 (stereo not shown),68.5
CCCC(NC(=O)c1c2c(nc3ccccc13)C(=O)N(C1CCCCC1)C2)c1cccs1 (stereo not shown),85.3
COc1ccc(OC)c(NC(=O)c2cc(S(=O)(=O)N3CCC(C)CC3)c(C)n2C)c1,7.06
CN(C)C(=O)c1sc(Cl)nc1S(N)(=O)=O,88.5
COCCNC(=O)C(=O)N1CCC(OC(=O)c2ccc(Oc3ccccc3)cc2)C(N2CCN(c3ccc(F)cc3)CC2)C1 (stereo not shown),58.2
CC(C)Oc1ccc(CN2C(=O)c3cc4ccsc4n3CC2(C)C(=O)NCc2ccc(F)cc2)cc1 (stereo not shown),86.9
Cc1cc(C)c(N(C)S(=O)(=O)c2ccc3c(c2)C(=O)Nc2ccc(C)cc2O3)c(C)c1,> 100

# Sample 3
# Structure (SMILES): CN(c1ccnc(CNc2nc(Nc3ccc4c(c3)CC(=O)N4)ncc2C(F)(F)F)n1)S(C)(=O)=O
# Concentration: 1 µM
target,read-out,method,remaining binding [%]
"Tyrosine-protein kinase ABL1, phosphorylated (ABL1, Homo sapiens, UniProt P00519, Y253F)",cell-free assay,competition with immobilised ligand,45
"EGFR (Homo sapiens, UniProt P00533, L858R/T790M)",cell-free assay,competition with immobilised ligand,56
"ALK (Homo sapiens, UniProt Q9UM73, C1156Y)",cell-free assay,competition with immobilised ligand,77
"SGK2 (Homo sapiens, UniProt Q9HBY8)",cell-free assay,competition with immobilised ligand,75
"PAK1 (Homo sapiens, UniProt Q13153)",cell-free assay,competition with immobilised ligand,73
"SIK1 (Homo sapiens, UniProt P57059)",,competition binding,76
"LTK (Homo sapiens, UniProt P29376)",cell-free assay,competition with immobilised ligand,100
"PRKG2 (Homo sapiens, UniProt Q13237)",cell-free assay,competition with immobilised ligand,68
"MAP2K6 (Homo sapiens, UniProt P52564)",cell-free assay,competition with immobilised ligand,83
"ROCK2 (Homo sapiens, UniProt O75116)",cell-free assay,competition with immobilised ligand,69
"Macrophage colony-stimulating factor 1 receptor, autoinhibited (CSF1R, Homo sapiens, UniProt P07333)",cell-free assay,competition with immobilised ligand,100
"CDK11A (Homo sapiens, UniProt Q9UQ88)",binding,competition with immobilised ligand,94
"EGFR (Homo sapiens, UniProt P00533, del747-752/P753S)",cell-free assay,competition with immobilised ligand,57
"TNNI3K (Homo sapiens, UniProt Q59H18)",cell-free assay,competition with immobilised ligand,73
"STK38L (Homo sapiens, UniProt Q9Y2H1)",cell-free assay,competition with immobilised ligand,75
"HIPK3 (Homo sapiens, UniProt Q9H422)",cell-free assay,competition with immobilised ligand,48
"PIK3C3 (Homo sapiens, UniProt Q8NEB9)",cell-free assay,competition with immobilised ligand,84

# Other studies, line by line
Compound,cell line,method,concentration,time,quantity,result
CC(C)C[C@@H]1NC(=O)[C@@H](N(C)C(=O)[C@H](CC2CCC2)NC(=O)[C@@H]2C[C@@H](F)CN2C(=O)C2(C(F)(F)F)CC(F)(F)C2)CCCCNC(=O)C2(CC2)NC(=O)[C@H](Cc2cc(Cl)ccc2Cl)N(C)C1=O,human CD34+ HSPC,EdU flow cytometry,10000 nM,24 h,S-phase cells,48.1% and 45%

# A few entries again (sample 3):
target,read-out,method,remaining binding [%]
"LTK (Homo sapiens, UniProt P29376)",cell-free assay,competition with immobilised ligand,100
"SIK1 (Homo sapiens, UniProt P57059)",,competition binding,76
"Tyrosine-protein kinase ABL1, phosphorylated (ABL1, Homo sapiens, UniProt P00519, Y253F)",cell-free assay,competition with immobilised ligand,45
"EGFR (Homo sapiens, UniProt P00533, L858R/T790M)",cell-free assay,competition with immobilised ligand,56
"EGFR (Homo sapiens, UniProt P00533, del747-752/P753S)",cell-free assay,competition with immobilised ligand,57
"HIPK3 (Homo sapiens, UniProt Q9H422)",cell-free assay,competition with immobilised ligand,48
"Macrophage colony-stimulating factor 1 receptor, autoinhibited (CSF1R, Homo sapiens, UniProt P07333)",cell-free assay,competition with immobilised ligand,100
